Earlier results as cited in several papers.
Protocols differ between the studies behind these lines. ± marks the error that the study gave.
F2: Prothrombin (F2, Bos taurus, UniProt P00735)
B1: CX3CL1, human; sequence looked up; chain QHHGVTKCNITCSKMTSKIPVALLIHYQQNQASCGKRAIILETRQHRLFCADPKEQWVKDAMQHLDRQAAALTRNGGTFEKQIGEVKPRTTPAAGGMDESVVLEPEATGESSSLEPTPSSQEAQRALGTSPELPTGVTGSSGTRLPPTPKAQDGGPVGTELFRVPPVSTAATWQSSAPHQPGPSLWAEAKTSEAPSTQDPSTQASTASSPAPEENAPSEGQRVWGQGQSPRPENSLEREEMGPVPAHTDAFQDWGPGSMAHVSVVPVSSEGTPSREPVASGSWTPKAEEPIHATMDPQRLGVLITPVPDAQAATRRQAVGLLAFLGLLFCLGVAMFTYQSLQGCPRKMAGEMAEGLRYIPRSCGSNSYVLVPV
UniProt P06241, sequence (whole entry, unmodified, looked up): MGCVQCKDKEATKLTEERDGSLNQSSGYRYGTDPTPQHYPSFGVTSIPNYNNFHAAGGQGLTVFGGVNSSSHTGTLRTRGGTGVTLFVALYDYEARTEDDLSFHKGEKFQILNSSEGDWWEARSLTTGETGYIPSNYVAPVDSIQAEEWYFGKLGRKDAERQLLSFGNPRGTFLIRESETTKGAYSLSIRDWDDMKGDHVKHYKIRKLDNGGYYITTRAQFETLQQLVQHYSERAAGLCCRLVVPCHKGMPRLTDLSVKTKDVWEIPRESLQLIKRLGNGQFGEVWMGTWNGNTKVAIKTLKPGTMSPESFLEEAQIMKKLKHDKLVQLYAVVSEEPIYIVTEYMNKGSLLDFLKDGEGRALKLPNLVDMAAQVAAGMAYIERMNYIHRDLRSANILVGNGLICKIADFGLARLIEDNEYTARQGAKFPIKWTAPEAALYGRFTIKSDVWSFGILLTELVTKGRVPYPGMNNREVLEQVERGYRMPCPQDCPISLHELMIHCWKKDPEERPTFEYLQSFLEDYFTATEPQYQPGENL
UniProt P25105, sequence (whole entry, looked up): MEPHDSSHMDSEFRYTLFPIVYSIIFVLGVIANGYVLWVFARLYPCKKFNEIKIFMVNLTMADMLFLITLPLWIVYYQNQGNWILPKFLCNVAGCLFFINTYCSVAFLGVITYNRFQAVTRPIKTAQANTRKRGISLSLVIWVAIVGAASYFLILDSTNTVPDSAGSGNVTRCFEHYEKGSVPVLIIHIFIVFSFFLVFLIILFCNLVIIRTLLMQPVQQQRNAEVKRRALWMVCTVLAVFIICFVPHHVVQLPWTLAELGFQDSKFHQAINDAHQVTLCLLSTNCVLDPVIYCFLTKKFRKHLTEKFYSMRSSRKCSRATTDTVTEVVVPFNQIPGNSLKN
UniProt P04191, sequence (whole entry, looked up): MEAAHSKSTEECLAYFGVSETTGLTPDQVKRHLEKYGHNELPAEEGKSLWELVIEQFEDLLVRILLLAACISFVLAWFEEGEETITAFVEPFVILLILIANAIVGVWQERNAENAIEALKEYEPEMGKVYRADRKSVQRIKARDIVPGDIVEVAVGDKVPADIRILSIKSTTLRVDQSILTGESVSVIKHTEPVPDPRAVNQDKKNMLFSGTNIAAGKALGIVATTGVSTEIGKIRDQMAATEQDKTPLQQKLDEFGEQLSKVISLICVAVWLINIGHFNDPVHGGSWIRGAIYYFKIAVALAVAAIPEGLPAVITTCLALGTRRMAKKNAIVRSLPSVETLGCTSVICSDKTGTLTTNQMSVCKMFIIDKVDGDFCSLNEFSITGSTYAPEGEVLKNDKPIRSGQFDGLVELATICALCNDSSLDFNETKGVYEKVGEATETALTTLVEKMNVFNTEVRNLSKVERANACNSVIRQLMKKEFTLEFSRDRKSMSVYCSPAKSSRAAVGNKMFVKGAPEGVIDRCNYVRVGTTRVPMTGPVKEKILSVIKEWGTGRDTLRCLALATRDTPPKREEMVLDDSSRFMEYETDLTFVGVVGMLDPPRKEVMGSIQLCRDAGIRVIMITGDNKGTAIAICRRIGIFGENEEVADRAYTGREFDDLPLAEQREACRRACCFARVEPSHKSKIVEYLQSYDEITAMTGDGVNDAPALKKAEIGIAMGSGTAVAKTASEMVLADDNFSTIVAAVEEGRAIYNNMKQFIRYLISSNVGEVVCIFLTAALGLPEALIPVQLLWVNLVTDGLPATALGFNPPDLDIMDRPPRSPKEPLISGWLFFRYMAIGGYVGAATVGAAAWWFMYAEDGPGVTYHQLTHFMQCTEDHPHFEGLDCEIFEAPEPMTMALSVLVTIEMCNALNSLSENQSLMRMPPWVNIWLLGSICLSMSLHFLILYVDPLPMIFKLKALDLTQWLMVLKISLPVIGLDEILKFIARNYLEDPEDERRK

| Molecule | tested on | assay | test system | conditions | scale | quantity | value |
| --- | --- | --- | --- | --- | --- | --- | --- |
| omiganan |  |  | rat erythrocytes | 200 µM |  | hemolysis | 0% |
| SGSLSTFFRLFNRSFTQA | Histidine kinase ComD (Streptococcus mutans serotype c, UniProt Q8DS94) | agonist | peptide | concentration not given, primary screen |  | activation | 100% |
| platelet-activating factor | PTAFR (Homo sapiens, UniProt P25105) | binding |  | historical reference data |  | Hill coefficient | 0.9 |
| Ac-APPIPPPRRKR-NH2 (N-acetyl, C-amide) | Tyrosine-protein kinase Fyn, SH3 domain (FYN, Homo sapiens, UniProt P06241) |  | peptide | concentration not given |  | binding enthalpy ΔH | -9.8 kcal/mol |
| neurotensin | NTS1 F331A |  |  | concentration not given | baseline: wild type | binding affinity decrease | 10 fold |
| CCL5 | US28 Y16F | binding, radioligand competition |  |  |  | Kd | 4.6 nM |
| DFLAEGGGVRGPRV | F2 | substrate, HPLC | peptide |  |  | Km | 312 ± 42 µM |
| sarcolipin | ATP2A1 (Oryctolagus cuniculus, UniProt P04191) | calcium affinity |  |  |  | KCa | 0.8 ± 0.02 µM |
| 5′-methylthioadenosine | PRMT5 |  |  | concentration not given | baseline: S-adenosylmethionine | binding affinity | ~10 fold |
| B1 (CX3CL1, human) | US28 wild type | binding, radioligand competition |  |  |  | Kd | 0.5 nM |
| TVELQGVVPRGVNL | F2 | substrate, HPLC | peptide |  |  | Km | 508 ± 44 µM |
| melittin |  |  | rat erythrocytes | 200 µM |  | hemolysis | 106 ± 17.6% |

Excerpt of the above:
| Molecule | tested on | assay | test system | conditions | scale | quantity | value |
| --- | --- | --- | --- | --- | --- | --- | --- |
| B1 (CX3CL1, human) | US28 wild type | binding, radioligand competition |  |  |  | Kd | 0.5 nM |
| TVELQGVVPRGVNL | F2 | substrate, HPLC | peptide |  |  | Km | 508 ± 44 µM |
